Measurements gathered from unrelated publications.
Compare with care: the assays were run in different laboratories.
Method: steady-state kinetics
B1: enzyme (Vitis vinifera, UniProt F6HSW4); chain MAVDSGLSSPLGPPACEKDAKALQFIEEMTRNPDQVQEKILAEILSQNGETEYLQRFKLAGATDRDTFKSKVPVVTYEDLQPDIQRIANGDRSPILSSHPISEFLTSSGTSAGERKLMPTIHEEWDRRQKLYSLLMPVMNLYVPGLDKGKGLYFLFVKSETKTPSGLVARPVLTGYYRSEHFKKRPYDPYNVYTSPDEAILCVDSFQSMYAQMLCGLLMHKEVLRVGAVFASGLLRAIRFLQVHWQQLAHDISTGILNPKITDPSVREGLAGILKPSQELADFIIQECSGGNWERIITRIWPNTKYLDVIVTGAMAQYIPTLDYFSGGIPLACTMYASSECYFGLNLKPMSKPSEVSYTIMPNMGYFEFLPHDPSAPPLSRDSPPRLVDLADVEVGKEYELVITTYAGLCRYRVGDILQVTGFHNSAPQFQFIRRKNVLLSIDSDKTDEAELQKAVENASLLLREFNTSVVEYTSFADTKTIPGHYVIYWELLVKDPSNSPTDTVLKQCCLAMEESLNTVYRQGRVADNSIGPLEIRVVKSGTFEELMDYAISRGASINQYKVPRCVNFTPIMELLDSRVLSTYFSPAAPHWTPERRRTD
B2: enzyme (Candida albicans, UniProt A0A1D8PHX1); chain MISIIQNGISQLSSVSGLDEANLKILICTLLSFPFGIIFKRLPDHDYTLKNIYNVAVSCFYVFGICDLRFGISTLLISATGSYFITRYVRTKSMPWINFLFLMIHMAYSHFHLQFFKEYDPKSIDITGAQMILVMKLSAFGWNIHDGKQPRSTLNDFNKARAITKHPNVLPYIGYVFFYASLLTGPAFDYADYDKFIHGTLFDDVPQDKRPGKNKRRIPRSGVQAFKKFSLGFFWAFLLLQSDKFVTMEYMFSPEFVQYHGLFYRIIYMWILGFTFRLKYYTIWTIAEGACILCGIGYNGVDPETGEFKWNRVQNIDPWSFETGQNVHACLEAWNQNTNIWLKNYVYLRVAKPGKKPGFKSTIFTFTTSAFWHGTRPGYYLTFVVGALMQTVGKYYRRNFRPIFLEADGKTPKPTKIVYDFVCWVNTQLAFGFFVQPFVILGFTKSLECWATVYYWLLWVIAISFFAFSGPFAKSVSKFFKSLQPSYREQQRKSREDKYKLNNEEASIVEQAVGAKLGQDYDIPALGLPPFDVFTDFDQTEVDHDIQHLRKAWTSFRGRRGSITENDFDGLKDAYNNFTNEINDIFNTKKEEFKKEKLNKQN
B3: cyc1 V329A (Streptomyces coelicolor, UniProt Q9K499); chain MHAFPHGTTATPTAIAVPPSLRLPVIEAAFPRQLHPYWPKLQETTRTWLLEKRLMPADKVEEYADGLCYTDLMAGYYLGAPDEVLQAIADYSAWFFVWDDRHDRDIVHGRAGAWRRLRGLLHTALDSPGDHLHHEDTLVAGFADSVRRLYAFLPATWNARFARHFHTVIEAYDREFHNRTRGIVPGVEEYLELRRLTFAHWIWTDLLEPSSGCELPDAVRKHPAYRRAALLSQEFAAWYNDLCSLPKEIAGDEVHNLGISLITHHSLTLEEAIGEVRRRVEECITEFLAVERDALRFADELADGTVRGKELSGAVRANVGNMRNWFSSAYWFHHESGRYMVDSWDDRSTPPYVNNEAAGEK
B4: CMBL (Homo sapiens, UniProt Q96DG6); chain MANEAYPCPCDIGHRLEYGGLGREVQVEHIKAYVTKSPVDAGKAVIVIQDIFGWQLPNTRYIADMISGNGYTTIVPDFFVGQEPWDPSGDWSIFPEWLKTRNAQKIDREISAILKYLKQQCHAQKIGIVGFCWGGTAVHHLMMKYSEFRAGVSVYGIVKDSEDIYNLKNPTLFIFAENDVVIPLKDVSLLTQKLKEHCKVEYQIKTFSGQTHGFVHRKREDCSPADKPYIDEARRNLIEWLNKYM
B5: Nudt8 (Mus musculus, UniProt Q9CR24); chain MLPDGLSAEDEQRCRQLLARTTARLRSRPAAAAVLVPLCLVRGVPALLYTLRSSRLVGRHKGEVSFPGGKCDPDDQDVIHTALRETQEELGLEVPKEHVWGVLQPVYDREKATIVPVLANVGPLDLQSLRPNLEEVDEVFEMSLAHLLQTQNQGYTHFCQGGHFSYTLPVFLHGPHRVWGLTAVITELTLKLLAPGFYQPSLAVPELPRG
B6: POLK (Homo sapiens, UniProt Q9UBT6); chain MDSTKEKCDSYKDDLLLRMGLNDNKAGMEGLDKEKINKIIMEATKGSRFYGNELKKEKQVNQRIENMMQQKAQITSQQLRKAQLQVDRFAMELEQSRNLSNTIVHIDMDAFYAAVEMRDNPELKDKPIAVGSMSMLSTSNYHARRFGVRAAMPGFIAKRLCPQLIIVPPNFDKYRAVSKEVKEILADYDPNFMAMSLDEAYLNITKHLEERQNWPEDKRRYFIKMGSSVENDNPGKEVNKLSEHERSISPLLFEESPSDVQPPGDPFQVNFEEQNNPQILQNSVVFGTSAQEVVKEIRFRIEQKTTLTASAGIAPNTMLAKVCSDKNKPNGQYQILPNRQAVMDFIKDLPIRKVSGIGKVTEKMLKALGIITCTELYQQRALLSLLFSETSWHYFLHISLGLGSTHLTRDGERKSMSVERTFSEINKAEEQYSLCQELCSELAQDLQKERLKGRTVTIKLKNVNFEVKTRASTVSSVVSTAEEIFAIAKELLKTEIDADFPHPLRLRLMGVRISSFPNEEDRKHQQRSIIGFLQAGNQALSATECTLEKTDKDKFVKPLEMSHKKSFFDKKRSERKWSHQDTFKCEAVNKQSFQTSQPFQVLKKKMNENLEISENSDDCQILTCPVCFRAQGCISLEALNKHVDECLDGPSISENFKMFSCSHVSATKVNKKENVPASSLCEKQDYEAHPKIKEISSVDCIALVDTIDNSSKAESIDALSNKHSKEECSSLPSKSFNIEHCHQNSSSTVSLENEDVGSFRQEYRQPYLCEVKTGQALVCPVCNVEQKTSDLTLFNVHVDVCLNKSFIQELRKDKFNPVNQPKESSRSTGSSSGVQKAVTRTKRPGLMTKYSTSKKIKPNNPKHTLDIFFK
Sequence of UniProt Q01740 (whole entry, looked up): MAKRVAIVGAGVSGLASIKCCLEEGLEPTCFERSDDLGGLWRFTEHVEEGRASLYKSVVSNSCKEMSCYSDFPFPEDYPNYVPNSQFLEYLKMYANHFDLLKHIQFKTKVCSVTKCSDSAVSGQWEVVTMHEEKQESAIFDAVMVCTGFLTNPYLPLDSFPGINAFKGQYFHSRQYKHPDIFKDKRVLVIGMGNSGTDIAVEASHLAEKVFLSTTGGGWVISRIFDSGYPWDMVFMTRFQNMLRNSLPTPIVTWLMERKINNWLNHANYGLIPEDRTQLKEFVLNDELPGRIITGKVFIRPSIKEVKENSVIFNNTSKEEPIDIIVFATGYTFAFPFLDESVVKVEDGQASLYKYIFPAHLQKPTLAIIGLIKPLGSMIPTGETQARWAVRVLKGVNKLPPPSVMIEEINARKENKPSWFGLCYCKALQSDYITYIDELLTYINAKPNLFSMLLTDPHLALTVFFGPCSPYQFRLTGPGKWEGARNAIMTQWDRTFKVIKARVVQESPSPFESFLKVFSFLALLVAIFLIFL
Sequence of UniProt P19337 (whole entry, looked up): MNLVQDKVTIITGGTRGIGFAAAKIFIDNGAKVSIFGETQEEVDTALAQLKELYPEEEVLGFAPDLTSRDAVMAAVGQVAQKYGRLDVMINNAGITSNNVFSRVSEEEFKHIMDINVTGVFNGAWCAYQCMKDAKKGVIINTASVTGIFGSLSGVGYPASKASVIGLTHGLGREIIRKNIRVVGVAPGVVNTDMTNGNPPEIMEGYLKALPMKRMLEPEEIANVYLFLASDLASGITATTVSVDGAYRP
Sequence of UniProt Q29437 (whole entry, looked up): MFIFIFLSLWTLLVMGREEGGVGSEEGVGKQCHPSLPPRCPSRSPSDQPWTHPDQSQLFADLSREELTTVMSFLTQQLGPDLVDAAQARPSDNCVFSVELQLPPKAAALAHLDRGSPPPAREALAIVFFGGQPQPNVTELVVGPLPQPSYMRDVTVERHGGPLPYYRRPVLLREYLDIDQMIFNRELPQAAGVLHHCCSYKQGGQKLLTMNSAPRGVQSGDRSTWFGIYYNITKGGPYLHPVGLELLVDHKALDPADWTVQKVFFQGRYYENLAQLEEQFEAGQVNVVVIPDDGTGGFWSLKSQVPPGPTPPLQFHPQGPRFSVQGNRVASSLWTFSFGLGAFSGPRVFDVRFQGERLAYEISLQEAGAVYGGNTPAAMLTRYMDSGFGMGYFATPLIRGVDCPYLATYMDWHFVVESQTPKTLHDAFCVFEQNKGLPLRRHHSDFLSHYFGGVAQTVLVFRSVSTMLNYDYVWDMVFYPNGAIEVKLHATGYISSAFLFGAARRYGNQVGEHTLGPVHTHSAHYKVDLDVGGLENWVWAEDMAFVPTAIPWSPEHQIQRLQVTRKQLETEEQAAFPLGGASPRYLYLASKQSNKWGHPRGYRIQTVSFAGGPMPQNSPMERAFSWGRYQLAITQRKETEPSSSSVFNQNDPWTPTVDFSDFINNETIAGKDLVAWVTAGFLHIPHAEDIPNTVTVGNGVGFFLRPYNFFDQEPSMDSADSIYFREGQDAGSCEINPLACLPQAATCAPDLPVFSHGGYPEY
Sequence of UniProt P22303 (whole entry, looked up): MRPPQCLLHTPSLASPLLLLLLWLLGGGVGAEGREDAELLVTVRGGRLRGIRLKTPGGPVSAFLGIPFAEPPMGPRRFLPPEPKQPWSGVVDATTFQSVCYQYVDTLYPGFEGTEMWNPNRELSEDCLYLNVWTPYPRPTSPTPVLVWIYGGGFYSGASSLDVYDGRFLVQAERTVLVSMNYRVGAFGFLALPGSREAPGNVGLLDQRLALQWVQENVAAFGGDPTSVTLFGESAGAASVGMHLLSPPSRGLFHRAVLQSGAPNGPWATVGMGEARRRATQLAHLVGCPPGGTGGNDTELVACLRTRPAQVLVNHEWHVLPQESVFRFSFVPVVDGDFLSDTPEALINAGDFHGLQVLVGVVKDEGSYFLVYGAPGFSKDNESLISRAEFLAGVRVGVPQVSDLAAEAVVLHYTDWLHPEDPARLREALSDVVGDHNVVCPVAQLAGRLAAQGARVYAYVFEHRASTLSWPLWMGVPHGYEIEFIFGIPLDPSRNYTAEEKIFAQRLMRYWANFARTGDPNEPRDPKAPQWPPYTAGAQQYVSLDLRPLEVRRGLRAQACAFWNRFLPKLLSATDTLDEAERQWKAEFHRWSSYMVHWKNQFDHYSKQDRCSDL
Sequence of UniProt Q6P4A8 (whole entry, looked up): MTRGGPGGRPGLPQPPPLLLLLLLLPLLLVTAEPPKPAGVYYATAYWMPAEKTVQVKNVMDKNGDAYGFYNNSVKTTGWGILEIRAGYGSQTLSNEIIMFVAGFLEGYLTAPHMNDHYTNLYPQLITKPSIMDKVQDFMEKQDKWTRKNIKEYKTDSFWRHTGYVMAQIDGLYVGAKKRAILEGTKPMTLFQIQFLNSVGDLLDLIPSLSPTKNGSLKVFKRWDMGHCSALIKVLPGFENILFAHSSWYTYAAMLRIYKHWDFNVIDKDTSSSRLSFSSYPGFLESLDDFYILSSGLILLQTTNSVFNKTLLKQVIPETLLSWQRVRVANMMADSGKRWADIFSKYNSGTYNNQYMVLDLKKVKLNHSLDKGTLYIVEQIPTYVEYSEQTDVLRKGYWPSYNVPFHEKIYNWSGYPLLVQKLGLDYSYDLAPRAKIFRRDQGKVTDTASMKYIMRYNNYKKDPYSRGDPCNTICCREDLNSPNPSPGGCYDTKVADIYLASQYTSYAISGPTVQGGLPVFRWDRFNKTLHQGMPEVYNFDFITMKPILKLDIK
Sequence of UniProt P06757 (whole entry, looked up): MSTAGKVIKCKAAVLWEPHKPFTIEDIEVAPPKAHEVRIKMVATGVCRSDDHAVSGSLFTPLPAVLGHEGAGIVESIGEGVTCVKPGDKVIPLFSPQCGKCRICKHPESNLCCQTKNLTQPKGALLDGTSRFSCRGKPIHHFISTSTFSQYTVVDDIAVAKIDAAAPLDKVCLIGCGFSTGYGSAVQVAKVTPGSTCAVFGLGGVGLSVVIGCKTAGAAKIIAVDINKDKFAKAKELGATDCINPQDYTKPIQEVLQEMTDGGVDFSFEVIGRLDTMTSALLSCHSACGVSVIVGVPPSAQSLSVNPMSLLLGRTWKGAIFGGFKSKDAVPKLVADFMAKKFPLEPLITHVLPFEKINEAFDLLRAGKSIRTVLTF

B1 (enzyme) — Km (O=C(O)Cc1cccc2ccccc12; pH 8.6, 25 °C): 554 µM
B2 (enzyme) — Km (CCCCCCCCCCCCCCCCCC(=O)SCCNC(=O)CCNC(=O)[C@H](O)C(C)(C)COP(=O)(O)OP(=O)(O)OC[C@H]1O[C@@H](n2cnc3c(N)ncnc32)[C@H](O)[C@@H]1OP(=O)(O)O; pH 7.4, 37 °C, apparent, not purified): 29.4 µM
Plasma amine oxidase (Bos taurus, UniProt Q29437) — Km (CNCCOc1ccc2cc(CN)ccc2c1; pH 7.2, 30 °C): 0.209 µM
B3 (cyc1 V329A) — Km (CC(C)=CCC/C(C)=C/CC/C(C)=C/CO[P@@](=O)(O)OP(=O)(O)O; pH 6.5, 30 °C, together with: MgCl2 10 mM): 0.47 µM
B4 (CMBL) — Km (CCCc1nc(C(C)(C)O)c(C(=O)OCc2oc(=O)oc2C)n1Cc1ccc(-c2ccccc2-c2nnn[nH]2)cc1; pH 7.4, 37 °C, wild type, E. coli expressed): 116 µM
B5 (Nudt8) — Km (CC(C)(COP(=O)(O)OP(=O)(O)OC[C@H]1O[C@@H](n2cnc3c(N)ncnc32)[C@H](O)[C@@H]1OP(=O)(O)O)[C@@H](O)C(=O)NCCC(=O)NCCS; pH 8.5, together with: 2 mM Mn2+): 150 µM
ACHE (Homo sapiens, UniProt P22303) — Km (CC(=O)SCC[N+](C)(C)C; pH 8, 22 °C): 110 µM
enzyme (Rattus norvegicus, UniProt P06757) — Km (OCc1ccccc1; pH 7.3, 37 °C): 36 µM
BaiA2 (Clostridium scindens, UniProt P19337) — Km (C[C@H](CCC(=O)SCCNC(=O)CCNC(=O)[C@H](O)C(C)(C)COP(=O)(O)OP(=O)(O)OC[C@H]1O[C@@H](n2cnc3c(N)ncnc32)[C@H](O)[C@@H]1OP(=O)(O)O)[C@H]1CC[C@H]2[C@@H]3[C@H](O)C[C@@H]4C[C@H](O)CC[C@]4(C)[C@H]3CC[C@]12C; pH 8.7, 37 °C, together with: NAD+): 23 µM
FMO1 (Homo sapiens, UniProt Q01740) — Km (CN1CCC[C@H]1c1cccnc1; pH 8.5, 37 °C, not purified): 1200 µM
B6 (POLK) — Km (Cc1cn([C@H]2C[C@H](O)[C@@H](COP(=O)(O)OP(=O)(O)OP(=O)(O)O)O2)c(=O)[nH]c1=O; pH 8, 37 °C, misinsertion opposite dT, together with: Mg2+): 120 µM
alanine aminopeptidase (Neisseria meningitidis, UniProt Q9JYV4) — Km (N=C(NCCC[C@H](N)C(=O)Nc1ccc2c(CC(N)=O)cc(=O)oc2c1)N[N+](=O)[O-]; pH 7.5, 37 °C): 60.4 µM
PLBD1 self-cleaved, cathepsin L-processed (Homo sapiens, UniProt Q6P4A8) — Km (CC[C@H](C)[C@H](N)C(=O)Nc1ccc2c(C)cc(=O)oc2c1; pH 4.5, 37 °C, together with: cathepsin L): 32.4 µM

Some of these lines once more:
B2 (enzyme) — Km (CCCCCCCCCCCCCCCCCC(=O)SCCNC(=O)CCNC(=O)[C@H](O)C(C)(C)COP(=O)(O)OP(=O)(O)OC[C@H]1O[C@@H](n2cnc3c(N)ncnc32)[C@H](O)[C@@H]1OP(=O)(O)O; pH 7.4, 37 °C, apparent, not purified): 29.4 µM
